{"data": "Experimental data from different studies", "note": "Numbered parts are unrelated; each lists some results of a single study. Values joined by “and” are separate records of one study, mostly repeats; a detail may differ.", "chain of UniProt Q9P1W9 (whole entry, looked up)": "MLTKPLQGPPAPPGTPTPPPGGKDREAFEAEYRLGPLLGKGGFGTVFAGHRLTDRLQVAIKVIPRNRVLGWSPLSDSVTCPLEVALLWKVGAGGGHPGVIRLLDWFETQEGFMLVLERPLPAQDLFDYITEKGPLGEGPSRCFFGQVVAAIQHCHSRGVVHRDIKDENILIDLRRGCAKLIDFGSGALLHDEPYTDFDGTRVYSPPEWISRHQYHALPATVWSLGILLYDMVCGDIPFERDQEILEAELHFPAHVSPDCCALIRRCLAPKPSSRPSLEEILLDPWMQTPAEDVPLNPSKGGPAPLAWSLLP", "chain of UniProt Q14004 (whole entry, looked up)": "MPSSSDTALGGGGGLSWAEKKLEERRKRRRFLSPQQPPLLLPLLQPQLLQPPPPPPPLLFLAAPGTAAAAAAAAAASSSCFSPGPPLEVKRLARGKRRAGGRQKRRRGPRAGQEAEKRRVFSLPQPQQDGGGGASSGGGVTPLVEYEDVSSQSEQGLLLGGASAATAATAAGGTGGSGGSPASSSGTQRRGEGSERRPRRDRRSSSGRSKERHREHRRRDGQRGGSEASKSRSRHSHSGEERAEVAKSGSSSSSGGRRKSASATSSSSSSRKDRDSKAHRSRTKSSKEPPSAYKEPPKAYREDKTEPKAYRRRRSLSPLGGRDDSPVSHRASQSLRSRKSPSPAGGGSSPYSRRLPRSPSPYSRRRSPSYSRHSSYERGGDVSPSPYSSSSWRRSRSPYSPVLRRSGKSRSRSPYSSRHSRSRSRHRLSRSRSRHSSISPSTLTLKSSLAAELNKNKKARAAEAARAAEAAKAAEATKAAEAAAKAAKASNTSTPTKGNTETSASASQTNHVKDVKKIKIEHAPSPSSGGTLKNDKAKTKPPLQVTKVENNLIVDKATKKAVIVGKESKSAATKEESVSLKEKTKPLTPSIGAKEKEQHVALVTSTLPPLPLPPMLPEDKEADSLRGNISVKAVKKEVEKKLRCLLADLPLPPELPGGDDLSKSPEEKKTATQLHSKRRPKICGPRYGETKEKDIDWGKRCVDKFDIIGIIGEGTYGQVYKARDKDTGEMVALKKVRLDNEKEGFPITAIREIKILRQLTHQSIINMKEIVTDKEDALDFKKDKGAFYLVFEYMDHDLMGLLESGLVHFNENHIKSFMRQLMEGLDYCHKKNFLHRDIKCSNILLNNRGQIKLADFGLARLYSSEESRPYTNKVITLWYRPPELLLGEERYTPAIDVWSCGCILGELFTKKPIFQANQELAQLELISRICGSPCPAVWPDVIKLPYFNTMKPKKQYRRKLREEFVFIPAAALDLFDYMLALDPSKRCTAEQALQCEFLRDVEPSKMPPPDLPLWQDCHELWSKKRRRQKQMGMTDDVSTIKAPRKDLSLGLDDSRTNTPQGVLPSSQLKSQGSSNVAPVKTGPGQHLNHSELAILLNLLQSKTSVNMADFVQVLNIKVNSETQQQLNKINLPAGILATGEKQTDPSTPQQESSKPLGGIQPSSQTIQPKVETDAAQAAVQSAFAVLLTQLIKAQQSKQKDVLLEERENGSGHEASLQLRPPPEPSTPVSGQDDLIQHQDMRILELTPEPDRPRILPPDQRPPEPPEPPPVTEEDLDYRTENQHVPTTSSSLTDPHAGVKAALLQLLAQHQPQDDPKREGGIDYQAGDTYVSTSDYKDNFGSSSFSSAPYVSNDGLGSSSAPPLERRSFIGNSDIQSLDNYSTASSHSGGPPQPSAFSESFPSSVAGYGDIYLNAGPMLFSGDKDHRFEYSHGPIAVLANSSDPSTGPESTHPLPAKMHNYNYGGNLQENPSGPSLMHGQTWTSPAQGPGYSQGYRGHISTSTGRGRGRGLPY", "chain of UniProt Q00534 (whole entry, looked up)": "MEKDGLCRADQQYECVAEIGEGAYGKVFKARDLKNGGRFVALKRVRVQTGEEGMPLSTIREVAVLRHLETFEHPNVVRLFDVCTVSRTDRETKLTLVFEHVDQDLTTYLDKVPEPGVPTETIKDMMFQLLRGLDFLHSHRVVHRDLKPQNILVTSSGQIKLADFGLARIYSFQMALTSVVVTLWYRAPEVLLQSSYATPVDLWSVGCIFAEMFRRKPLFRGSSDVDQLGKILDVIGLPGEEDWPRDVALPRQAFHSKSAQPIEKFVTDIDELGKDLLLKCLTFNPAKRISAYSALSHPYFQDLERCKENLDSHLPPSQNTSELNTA", "chain of UniProt P00519 (whole entry, looked up)": "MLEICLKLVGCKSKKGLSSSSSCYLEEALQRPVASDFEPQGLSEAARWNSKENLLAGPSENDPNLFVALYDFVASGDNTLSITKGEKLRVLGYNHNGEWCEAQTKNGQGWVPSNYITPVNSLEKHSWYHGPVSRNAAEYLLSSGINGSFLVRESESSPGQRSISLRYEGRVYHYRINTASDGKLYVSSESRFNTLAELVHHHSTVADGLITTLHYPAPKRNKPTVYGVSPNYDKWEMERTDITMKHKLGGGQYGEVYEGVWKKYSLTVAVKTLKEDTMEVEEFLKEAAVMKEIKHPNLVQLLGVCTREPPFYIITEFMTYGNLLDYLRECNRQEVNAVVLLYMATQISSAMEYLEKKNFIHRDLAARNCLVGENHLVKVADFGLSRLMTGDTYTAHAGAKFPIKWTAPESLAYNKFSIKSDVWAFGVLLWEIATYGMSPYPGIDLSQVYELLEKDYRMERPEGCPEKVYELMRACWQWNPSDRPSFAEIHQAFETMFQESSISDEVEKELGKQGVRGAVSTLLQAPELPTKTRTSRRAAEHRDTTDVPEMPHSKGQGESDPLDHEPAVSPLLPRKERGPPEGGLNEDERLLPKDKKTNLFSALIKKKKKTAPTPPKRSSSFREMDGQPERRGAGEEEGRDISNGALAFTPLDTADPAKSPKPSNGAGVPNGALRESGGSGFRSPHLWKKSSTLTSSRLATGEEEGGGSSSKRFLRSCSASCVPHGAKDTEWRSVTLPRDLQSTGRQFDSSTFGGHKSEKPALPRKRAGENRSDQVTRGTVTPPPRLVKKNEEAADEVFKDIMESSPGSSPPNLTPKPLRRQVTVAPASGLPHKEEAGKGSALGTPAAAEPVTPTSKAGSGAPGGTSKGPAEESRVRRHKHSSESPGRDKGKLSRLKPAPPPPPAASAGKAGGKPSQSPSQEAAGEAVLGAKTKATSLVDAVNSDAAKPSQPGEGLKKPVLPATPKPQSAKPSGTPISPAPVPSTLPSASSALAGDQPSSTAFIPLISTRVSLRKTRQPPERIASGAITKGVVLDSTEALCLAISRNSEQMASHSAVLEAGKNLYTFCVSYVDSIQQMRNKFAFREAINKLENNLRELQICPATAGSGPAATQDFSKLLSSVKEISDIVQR", "chain of UniProt P54762 (whole entry, looked up)": "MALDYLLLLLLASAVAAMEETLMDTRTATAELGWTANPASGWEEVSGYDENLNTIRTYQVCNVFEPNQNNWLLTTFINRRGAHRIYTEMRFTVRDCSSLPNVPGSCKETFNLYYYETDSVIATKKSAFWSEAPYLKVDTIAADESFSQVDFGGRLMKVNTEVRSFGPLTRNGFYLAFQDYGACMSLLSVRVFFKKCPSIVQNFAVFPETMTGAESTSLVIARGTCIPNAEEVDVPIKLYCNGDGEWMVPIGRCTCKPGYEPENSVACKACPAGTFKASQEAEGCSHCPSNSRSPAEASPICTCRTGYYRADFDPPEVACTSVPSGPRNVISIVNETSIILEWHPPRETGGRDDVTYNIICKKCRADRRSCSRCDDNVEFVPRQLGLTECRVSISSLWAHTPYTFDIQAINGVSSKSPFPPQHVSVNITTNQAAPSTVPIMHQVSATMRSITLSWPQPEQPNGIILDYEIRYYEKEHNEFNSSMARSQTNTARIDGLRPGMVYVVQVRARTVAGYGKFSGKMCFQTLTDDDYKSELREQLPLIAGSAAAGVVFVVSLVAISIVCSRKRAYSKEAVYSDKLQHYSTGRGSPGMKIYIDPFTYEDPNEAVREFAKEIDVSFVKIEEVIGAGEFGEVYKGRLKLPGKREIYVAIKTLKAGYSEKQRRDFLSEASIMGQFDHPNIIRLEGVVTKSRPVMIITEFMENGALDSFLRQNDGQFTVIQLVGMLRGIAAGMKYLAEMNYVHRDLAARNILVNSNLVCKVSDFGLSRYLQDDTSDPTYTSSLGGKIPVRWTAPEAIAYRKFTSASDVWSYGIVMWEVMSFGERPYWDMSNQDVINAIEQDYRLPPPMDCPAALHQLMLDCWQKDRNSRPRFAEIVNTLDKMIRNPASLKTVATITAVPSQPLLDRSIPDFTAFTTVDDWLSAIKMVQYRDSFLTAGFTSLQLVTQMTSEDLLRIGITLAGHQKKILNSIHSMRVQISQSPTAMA", "chain of UniProt P51451 (whole entry, looked up)": "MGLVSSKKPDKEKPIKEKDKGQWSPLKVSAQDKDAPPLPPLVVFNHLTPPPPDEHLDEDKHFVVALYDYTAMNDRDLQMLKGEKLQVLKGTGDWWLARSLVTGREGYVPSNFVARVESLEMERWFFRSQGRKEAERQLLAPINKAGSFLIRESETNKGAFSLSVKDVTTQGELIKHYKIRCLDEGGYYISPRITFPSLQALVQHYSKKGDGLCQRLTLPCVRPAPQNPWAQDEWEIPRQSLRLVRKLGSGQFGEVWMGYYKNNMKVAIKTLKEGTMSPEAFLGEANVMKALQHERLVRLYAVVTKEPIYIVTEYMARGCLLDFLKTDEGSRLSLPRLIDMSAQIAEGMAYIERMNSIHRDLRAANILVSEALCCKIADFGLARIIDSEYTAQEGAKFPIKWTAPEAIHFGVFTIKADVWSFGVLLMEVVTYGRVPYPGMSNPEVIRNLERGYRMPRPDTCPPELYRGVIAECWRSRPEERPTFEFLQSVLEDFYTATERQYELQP", "chain of UniProt P11802 (whole entry, looked up)": "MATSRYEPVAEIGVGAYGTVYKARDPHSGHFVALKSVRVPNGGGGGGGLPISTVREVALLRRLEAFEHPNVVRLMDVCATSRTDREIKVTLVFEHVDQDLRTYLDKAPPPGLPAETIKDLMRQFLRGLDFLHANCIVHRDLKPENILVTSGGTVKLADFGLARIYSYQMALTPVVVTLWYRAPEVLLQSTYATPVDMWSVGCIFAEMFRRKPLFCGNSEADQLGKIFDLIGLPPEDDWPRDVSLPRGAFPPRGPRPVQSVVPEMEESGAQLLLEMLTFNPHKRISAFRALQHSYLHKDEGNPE"}
{"data": "Study 1", "SMILES": "O=C(N1CCS(=O)(=O)CC1)N1C[C@H](c2ccc(OC(F)(F)F)cc2)C[C@H](c2nc(C3CC3)no2)C1", "method": "competition with immobilised ligand", "concentration": "1 µM"}
{"target": "NEK2 (Homo sapiens, UniProt P51955)", "assay": "cell-free assay", "remaining binding [%]": 100}
{"target": "TNIK (Homo sapiens, UniProt Q9UKE5)", "assay": "cell-free assay", "remaining binding [%]": 75}
{"target": "IRAK3 (Homo sapiens, UniProt Q9Y616)", "assay": "cell-free assay", "remaining binding [%]": 100}
{"target": "PIP4K2B (Homo sapiens, UniProt P78356)", "assay": "cell-free assay", "remaining binding [%]": 73}
{"target": "MUSK (Homo sapiens, UniProt O15146)", "assay": "cell-free assay", "remaining binding [%]": 100}
{"target": "PIM2 (Homo sapiens, UniProt Q9P1W9)", "assay": "cell-free assay", "remaining binding [%]": 100}
{"target": "CASK (Homo sapiens, UniProt O14936)", "assay": "cell-free assay", "remaining binding [%]": 100}
{"target": "CAMK4 (Homo sapiens, UniProt Q16566)", "assay": "cell-free assay", "remaining binding [%]": 91}
{"target": "KIT (Homo sapiens, UniProt P10721, L576P)", "assay": "cell-free assay", "remaining binding [%]": 100}
{"target": "CDK13 (Homo sapiens, UniProt Q14004)", "assay": "cell-free assay", "remaining binding [%]": 100}
{"target": "ACVR1 (Homo sapiens, UniProt Q04771)", "assay": "cell-free assay", "remaining binding [%]": 100}
{"target": "MATK (Homo sapiens, UniProt P42679)", "assay": "cell-free assay", "remaining binding [%]": 100}
{"target": "MELK (Homo sapiens, UniProt Q14680)", "assay": "cell-free assay", "remaining binding [%]": 100}
{"target": "ACVR2B (Homo sapiens, UniProt Q13705)", "assay": "binding", "remaining binding [%]": 86}
{"data": "Study 2", "cell line": "A-375", "concentration": "100 µM", "time": "18 h"}
{"Structure (SMILES)": "Nc1nc2[nH]cc(CCc3ccc(C(=O)N[C@@H](CCC(=O)O)C(=O)O)cc3)c2c(=O)[nH]1", "viability": "81.9% and 99.6%"}
{"Structure (SMILES)": "CC1(C)O[C@@H]2C[C@H]3[C@@H]4C[C@H](F)C5=CC(=O)C=C[C@]5(C)[C@H]4[C@@H](O)C[C@]3(C)[C@]2(C(=O)CO)O1", "viability": "65.9%"}
{"Structure (SMILES)": "C[C@]12CCC(=O)C=C1[C@@H]1C[C@@H]1[C@H]1[C@@H]3[C@@H]4C[C@@H]4[C@@]4(CCC(=O)O4)[C@@]3(C)CC[C@@H]12", "viability": "64.7%"}
{"Structure (SMILES)": "O=C1c2cccc(O)c2C(=O)c2c(O)cc(CO)cc21", "viability": "79.3%"}
{"Structure (SMILES)": "CNC(=O)c1cnn(-c2nc(N)c3ncn([C@@H]4O[C@H](CO)[C@@H](O)[C@H]4O)c3n2)c1", "viability": "106%"}
{"Structure (SMILES)": "COC(=O)/C=C/C(=O)OC", "viability": "102%"}
{"Structure (SMILES)": "CN(C)CCn1nnnc1SCC1=C(C(=O)O)N2C(=O)[C@@H](NC(=O)Cc3csc(N)n3)[C@H]2SC1", "viability": "112%"}
{"Structure (SMILES)": "CC1(O)CCC(C(C)(C)O)CC1 (stereo not shown)", "viability": "100%"}
{"Structure (SMILES)": "CCOc1ccc2nc3cc(N)ccc3c(N)c2c1", "viability": "8.7%"}
{"Structure (SMILES)": "COc1cc(Cc2cnc(N)nc2N)cc(OC)c1OC", "viability": "107%"}
{"Structure (SMILES)": "CC(C)(C)CC(C)(C)c1ccc(O)c(Cc2ccc(Cl)cc2Cl)c1", "viability": "8.56%"}
{"data": "Study 3", "species": "mouse", "matrix": "microsomes or S9", "concentration": "2 µM", "time": "0.5 h"}
{"Compound": "c1ccc(-c2csc3nc(-c4cccnc4)nc(Oc4ccc5ccncc5c4)c23)cc1", "remaining compound [%]": 22.7}
{"Compound": "CC(=O)c1c(Nc2ccc(F)cc2)nn(-c2ccccc2)c1C", "remaining compound [%]": 1.12}
{"Compound": "C=CCn1cc(Cl)cc/c1=N\\C=C(/C#N)C(=O)OCC", "remaining compound [%]": 24.1}
{"Compound": "CC(C)S(=O)(=O)c1ccccc1C(=O)N1CC(C)(C)c2c(Cl)cccc21", "remaining compound [%]": 5.28}
{"Compound": "CCOc1ccccc1NC(=O)c1cc2cc(C)ccc2[nH]1", "remaining compound [%]": 47}
{"data": "Study 4", "Compound": "O=Nc1c(-c2c(O)[nH]c3ccccc23)[nH]c2ccccc12", "observed": "enzyme activity", "mode": "inhibitor", "concentration": "0.5 µM", "baseline": "control"}
{"target": "TSSK2 (Homo sapiens, UniProt Q96PF2)", "remaining activity [%]": 97.7}
{"target": "EPHB1 (Homo sapiens, UniProt P54762)", "remaining activity [%]": 86.2}
{"target": "RPS6KA6 (Homo sapiens, UniProt Q9UK32)", "remaining activity [%]": 52.2}
{"target": "MAP4K4 (Homo sapiens, UniProt O95819)", "remaining activity [%]": 42}
{"target": "SRMS (Homo sapiens, UniProt Q9H3Y6)", "remaining activity [%]": 102}
{"target": "EPHB4 (Homo sapiens, UniProt P54760)", "remaining activity [%]": 85.9}
{"target": "BLK (Homo sapiens, UniProt P51451)", "remaining activity [%]": 75.1}
{"target": "HIPK4 (Homo sapiens, UniProt Q8NE63)", "remaining activity [%]": 102}
{"target": "ABL1 (Homo sapiens, UniProt P00519)", "remaining activity [%]": 82.5}
{"target": "WNK3 (Homo sapiens, UniProt Q9BYP7)", "remaining activity [%]": 89.4}
{"target": "PHKG1 (Homo sapiens, UniProt Q16816)", "remaining activity [%]": 31.5}
{"target": "Cyclin-dependent kinase 6, with cyclin D3 (CDK6, Homo sapiens, UniProt Q00534)", "remaining activity [%]": 26.1}
{"target": "MAPKAPK3 (Homo sapiens, UniProt Q16644)", "remaining activity [%]": 103}
{"target": "Cyclin-dependent kinase 4, with cyclin D3 (CDK4, Homo sapiens, UniProt P11802)", "remaining activity [%]": 98.9}
{"target": "AXL (Homo sapiens, UniProt P30530)", "remaining activity [%]": 82.3}
{"target": "DYRK3 (Homo sapiens, UniProt O43781)", "remaining activity [%]": 106}
{"target": "CAMK2B (Homo sapiens, UniProt Q13554)", "remaining activity [%]": 87.5}
{"target": "STK17A (Homo sapiens, UniProt Q9UEE5)", "remaining activity [%]": 46}
{"target": "HIPK2 (Homo sapiens, UniProt Q9H2X6)", "remaining activity [%]": 104}
{"note": "Some of these lines once more (study 3):"}
{"Compound": "c1ccc(-c2csc3nc(-c4cccnc4)nc(Oc4ccc5ccncc5c4)c23)cc1", "remaining compound [%]": 22.7}
{"Compound": "CC(=O)c1c(Nc2ccc(F)cc2)nn(-c2ccccc2)c1C", "remaining compound [%]": 1.12}
{"Compound": "C=CCn1cc(Cl)cc/c1=N\\C=C(/C#N)C(=O)OCC", "remaining compound [%]": 24.1}
